Published values pooled from the literature.
Lines come from different studies, so protocols differ. Several values in a cell are separate wells, animals, samples, runs or records. ± marks the error that the study gave.
CPL: CPL (Toxoplasma gondii, UniProt Q6DMN0)
Aminopeptidase N: Aminopeptidase N (Neisseria meningitidis, UniProt Q9JYV4)

SMILES = CCC(C)Sc1nc2c([nH]1)c(=S)n(C)c(=O)n2C (centres unmarked); target = PGR (Homo sapiens, UniProt P06401); test = reporter gene, antagonist, MMTV-luciferase; system = T47D/A1-2; setting = 10 µM, 24 h, with: 5 nM progesterone; scale = baseline: maximal activity; measurement = remaining activity; result = 86%
SMILES = CN(C)CCCSC(=S)N1CCN(C(=O)/C=C/c2coc3ccccc3c2=O)CC1; target = Nucleoprotein (N, Tomato spotted wilt virus, UniProt P25999, R94A); test = binding, microscale thermophoresis; setting = concentration not given; scale = baseline: wild type over mutant; measurement = fold reduction in affinity; result = ~103
SMILES = C[C@@H]1O[C@@H](O[C@H]2C[C@@H](O)[C@]3(CO)[C@H]4[C@H](O)C[C@]5(C)[C@@H](C6=CC(=O)OC6)CC[C@]5(O)[C@@H]4CC[C@]3(O)C2)[C@H](O)[C@H](O)[C@H]1O; target = Na+/K+-ATPase; test = inhibitor; scale = baseline: Oncopeltus fasciatus over monarch; measurement = tolerance ratio; result = 8 X
SMILES = C=C(C)C(=O)Oc1ccc(C(C)(C)c2ccc(OC(=O)C(=C)C)cc2)cc1; target = Aromatase (CYP19A1, Homo sapiens, UniProt P11511); test = inhibitor, tritiated water release; system = JEG-3; setting = 18 h; measurement = maximal effect concentration; result = 100 µM
SMILES = CC(=O)/C(C#N)=C/c1cccc(C(N)=O)c1; target = Genome polyprotein, 3C protease (Human enterovirus D68, UniProt Q68T42, C1641Y/I1565V/I1594T/R1603K/Y1579H); test = ITC; system = enterovirus D68; setting = 25 °C, with: DTT 10 mM; measurement = binding free energy; result = -6.5 kcal/mol
SMILES = CC(COC(=O)c1ccccc1)OC(=O)C(N)C(C)C (mixture of isomers); target = BPHL (Homo sapiens, UniProt Q86WA6); test = enzyme activity, substrate; measurement = Km; result = 460 µM
SMILES = CC(C)P(=S)(NP(=[Se])(C(C)C)C(C)C)C(C)C; target = Alpha-amylase (Bacillus subtilis, UniProt P00691); test = binding, Van't Hoff analysis; setting = pH 6.8, 298–310 K; measurement = ΔS; result = -0.203 kJ/mol/K
SMILES = CCCCCCCCNP(=O)(Nc1ccccc1)O[C@@H]1O[C@H](CO)[C@@H](O)[C@H](O)[C@H]1F (some centres unmarked); target = GBA1 (Homo sapiens, UniProt P04062); test = enzyme activity, irreversible inhibitor; setting = pH 5.5, 37 °C, with: 2,4-dinitrophenyl beta-D-glucopyranoside; measurement = kinact/Ki; result = 358 M⁻¹ s⁻¹
SMILES = N#Cc1nc(N2CCOCC2)nc(N(Cc2ccc(F)cc2)CC2CCCCC2)n1; target = CPL; test = enzyme activity, inhibitor; scale = baseline: human over Toxoplasma IC50; measurement = selectivity ratio; result = 3.7 and ~4
SMILES = C=CC[C@H](N)C(=O)Nc1ccc2c(CC(N)=O)cc(=O)oc2c1; target = Aminopeptidase N; test = enzyme activity, substrate; setting = 3 µM, pH 7.5, 37 °C; scale = baseline: L-hArg-ACC; measurement = relative hydrolysis rate; result = 20 to 40%
SMILES = Cc1cc(O)cc(C)c1CC(N)C(=O)NC1CCNc2c(Br)cc(Cc3ccccc3)cc21 (centres unmarked); target = Oprd1 (Rattus norvegicus, UniProt P33533); test = GTPγS binding, agonist; system = C6 cells expressing DOR; scale = baseline: DPDPE at 10 µM; measurement = maximal stimulation; result = 69%
SMILES = CCN(Cc1ccccc1)C(=O)CCc1nc(CN2CCN(C(=O)Cc3ccc(OC)c(OC)c3)CC2)no1; target = Sodium channel protein type 11 subunit alpha (Scn11a, Rattus norvegicus, UniProt O88457); test = sodium current, whole-cell patch clamp; system = rat DRG neurons; setting = 10 µM; scale = baseline: control, towards hyperpolarisation; measurement = inactivation curve shift; result = 12.1 mV
SMILES = N#Cc1nc(N2CCOCC2)nc(N(Cc2ccc(F)cc2)CC2CCOCC2)n1; target = CPL; test = enzyme activity, inhibitor; scale = baseline: human over Toxoplasma IC50; measurement = selectivity ratio; result = 0.25
SMILES = CC(=O)N[C@H]1C(O)O[C@H](CO)[C@@H](O[C@@H]2O[C@H](CO)[C@H](O)[C@H](O)[C@H]2O)[C@@H]1O (some centres unmarked); target = Galectin-3 (LGALS3, Homo sapiens, UniProt P17931); test = binding, isothermal titration calorimetry; setting = full-length protein; measurement = –ΔH; result = 12.7 kcal/mol
SMILES = CCN1CCN(Cc2ccc(C(=O)Nc3ccc(C)c(NCc4cnc5[nH]ccc5c4OC)c3)cc2C(F)(F)F)CC1; target = DDR1 (Homo sapiens, UniProt Q08345, G707A); test = autophosphorylation; system = U2OS; scale = baseline: G707A mutant over wild type; measurement = EC50 fold shift; result = 100 fold
SMILES = CSCC[C@H](N)C(=O)Nc1ccc2c(CC(N)=O)cc(=O)oc2c1; target = Aminopeptidase N; test = enzyme activity, substrate; setting = 3 µM, pH 7.5, 37 °C; scale = baseline: L-hArg-ACC; measurement = relative hydrolysis rate; result = < 20%
SMILES = CC[C@H](C)[C@H](NC(=O)[C@H](CC(N)=O)NC(=O)[C@H](CCC(=O)O)NC(=O)[C@H](CCC(=O)O)NC(=O)[C@H](CCC(=O)O)NC(=O)[C@H](CC(N)=O)NC(=O)[C@H](CCCNC(=N)N)NC(=O)[C@@H]1CCCN1C(=O)[C@H](CCCCN)NC(=O)[C@@H](NC(=O)[C@@H](NC(=O)[C@H](C)NC(=O)[C@H](CC(=O)O)NC(=O)[C@H](CCSC)NC(=O)[C@@H]1CCCN1C(=O)[C@H](CCC(=O)O)NC(=O)[C@H](C)NC(=O)[C@H](Cc1ccc(OP(=O)(O)O)cc1)NC(=O)[C@H](CC(=O)O)NC(=O)[C@H](CO)NC(=O)[C@@H]1CCCN1C(=O)[C@H](CC(=O)O)NC(C)=O)C(C)C)C(C)C)C(=O)N[C@@H](Cc1ccc(OP(=O)(O)O)cc1)C(=O)N[C@@H](CO)C(=O)N[C@H](C(=O)N1CCC[C@H]1C(=O)N[C@@H](Cc1c[nH]cn1)C(=O)N[C@@H](CC(=O)O)C(=O)N[C@@H](CO)C(N)=O)C(C)C; target = Ras GTPase-activating protein 1, SH2-SH3-SH2 region (RASA1, Homo sapiens, UniProt P20936, C236S/C261S/C372S/C402S); test = isothermal titration calorimetry; setting = concentration not given, pH 8.0, with: doubly phosphorylated p190RhoGAP peptide; measurement = binding entropy; result = -280 ± 80 J/(mol·K)
SMILES = O=C(O)/C=C/c1cc(O)cc(O)c1; target = ACHE (Homo sapiens, UniProt P22303); test = enzyme activity, inhibitor; setting = 62.5 µg/mL; measurement = inhibition; result = 48.2 ± 3.34%
SMILES = Nc1nc2c([C@@H]3O[C@@H]4COP(=O)(O)O[C@H]5[C@@H](O)[C@H](n6cnc7c(=O)[nH]c(N)nc76)O[C@@H]5COP(=O)(O)O[C@H]4[C@H]3O)snc2c(=O)[nH]1; target = rocR (Pseudomonas aeruginosa, UniProt Q9HX69); test = substrate; setting = 10 µM, second binding orientation, with: 100 nM enzyme; measurement = cleavage rate constant k4; result = 0.34 ± 0.01 s⁻¹
SMILES = CN1/C(=C/C=C/C=C/C2=[N+](CCCCCC(=O)NCCCCCCCCN3[C@@H]4[C@H](C(=O)O)[C@@H](O)[C@H](O)[C@@H](O)[C@@H]43)c3ccccc3C2(C)C)C(C)(C)c2ccccc21 (some centres unmarked); target = Heparanase (HPSE, Homo sapiens, UniProt Q9Y251); test = inhibitor, competitive ABPP; system = human platelet lysate; measurement = concentration abolishing labeling; result = 3 µM
SMILES = CC(=O)N[C@H](CCCNC(=N)N)C(=O)N[C@H]1CSSC[C@@H](C(N)=O)NC(=O)[C@H](Cc2c[nH]c3ccccc23)NC(=O)[C@H](CCCNC(=N)N)NC(=O)[C@@H](Cc2ccccc2)NC(=O)[C@H](Cc2c[nH]cn2)NC(=O)[C@H](CCC(=O)O)NC1=O; target = Melanocortin receptor 4 (Mus musculus, UniProt P56450); test = agonist; system = mice; setting = intraperitoneal, 3 mg/kg; scale = baseline: saline; measurement = plasma PYY level; result = 3 fold
SMILES = CC(=O)NC(Cc1ccc(Br)c(Cl)c1)C(=O)N[C@@H](C)C(=O)N1CCC[C@H]1C(=O)N1CCC[C@H]1C(=O)N[C@@H](CCC(=O)O)C(=O)N[C@@H](Cc1c[nH]cn1)C(=O)N[C@@H](CO)C(=O)N[C@H](C(=O)N[C@@H](C)C(N)=O)[C@@H](C)OP(=O)(O)O (some centres unmarked); target = EPHB4 (Homo sapiens, UniProt P54760); test = cell-free assay, inhibitor; setting = 10 µM; measurement = inhibition; result = 0.5%
SMILES = CC[C@H](C)[C@H]1C(=O)O[C@H](C(C)C)C(=O)N(C)[C@@H]([C@@H](C)CC)C(=O)O[C@H](C(C)C)C(=O)N(C)[C@@H]([C@@H](C)CC)C(=O)O[C@H](C(C)C)C(=O)N1C; target = HSP90AB1 (Homo sapiens, UniProt P08238); test = CETSA; system = MCF7; setting = 20 µM, 1 h; measurement = thermal stabilization temperature; result = > 61 °C

Excerpt of the above:
SMILES = CSCC[C@H](N)C(=O)Nc1ccc2c(CC(N)=O)cc(=O)oc2c1; target = Aminopeptidase N; test = enzyme activity, substrate; setting = 3 µM, pH 7.5, 37 °C; scale = baseline: L-hArg-ACC; measurement = relative hydrolysis rate; result = < 20%
SMILES = CC[C@H](C)[C@H](NC(=O)[C@H](CC(N)=O)NC(=O)[C@H](CCC(=O)O)NC(=O)[C@H](CCC(=O)O)NC(=O)[C@H](CCC(=O)O)NC(=O)[C@H](CC(N)=O)NC(=O)[C@H](CCCNC(=N)N)NC(=O)[C@@H]1CCCN1C(=O)[C@H](CCCCN)NC(=O)[C@@H](NC(=O)[C@@H](NC(=O)[C@H](C)NC(=O)[C@H](CC(=O)O)NC(=O)[C@H](CCSC)NC(=O)[C@@H]1CCCN1C(=O)[C@H](CCC(=O)O)NC(=O)[C@H](C)NC(=O)[C@H](Cc1ccc(OP(=O)(O)O)cc1)NC(=O)[C@H](CC(=O)O)NC(=O)[C@H](CO)NC(=O)[C@@H]1CCCN1C(=O)[C@H](CC(=O)O)NC(C)=O)C(C)C)C(C)C)C(=O)N[C@@H](Cc1ccc(OP(=O)(O)O)cc1)C(=O)N[C@@H](CO)C(=O)N[C@H](C(=O)N1CCC[C@H]1C(=O)N[C@@H](Cc1c[nH]cn1)C(=O)N[C@@H](CC(=O)O)C(=O)N[C@@H](CO)C(N)=O)C(C)C; target = Ras GTPase-activating protein 1, SH2-SH3-SH2 region (RASA1, Homo sapiens, UniProt P20936, C236S/C261S/C372S/C402S); test = isothermal titration calorimetry; setting = concentration not given, pH 8.0, with: doubly phosphorylated p190RhoGAP peptide; measurement = binding entropy; result = -280 ± 80 J/(mol·K)
